Published values gathered from unrelated publications.
A part holds a random share of what one study measured.
UniProt O00506, sequence (whole entry, looked up): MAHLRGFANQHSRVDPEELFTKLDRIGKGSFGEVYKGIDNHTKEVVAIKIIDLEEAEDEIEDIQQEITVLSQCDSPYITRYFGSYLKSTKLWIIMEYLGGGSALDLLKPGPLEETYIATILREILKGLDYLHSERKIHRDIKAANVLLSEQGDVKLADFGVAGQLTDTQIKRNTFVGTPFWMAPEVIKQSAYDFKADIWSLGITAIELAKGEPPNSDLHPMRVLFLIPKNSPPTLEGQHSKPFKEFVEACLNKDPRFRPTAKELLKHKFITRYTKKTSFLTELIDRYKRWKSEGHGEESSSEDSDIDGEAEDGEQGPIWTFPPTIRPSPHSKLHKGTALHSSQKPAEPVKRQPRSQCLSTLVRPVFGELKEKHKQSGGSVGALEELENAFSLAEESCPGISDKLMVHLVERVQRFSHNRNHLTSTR
UniProt Q13131, sequence (whole entry, looked up): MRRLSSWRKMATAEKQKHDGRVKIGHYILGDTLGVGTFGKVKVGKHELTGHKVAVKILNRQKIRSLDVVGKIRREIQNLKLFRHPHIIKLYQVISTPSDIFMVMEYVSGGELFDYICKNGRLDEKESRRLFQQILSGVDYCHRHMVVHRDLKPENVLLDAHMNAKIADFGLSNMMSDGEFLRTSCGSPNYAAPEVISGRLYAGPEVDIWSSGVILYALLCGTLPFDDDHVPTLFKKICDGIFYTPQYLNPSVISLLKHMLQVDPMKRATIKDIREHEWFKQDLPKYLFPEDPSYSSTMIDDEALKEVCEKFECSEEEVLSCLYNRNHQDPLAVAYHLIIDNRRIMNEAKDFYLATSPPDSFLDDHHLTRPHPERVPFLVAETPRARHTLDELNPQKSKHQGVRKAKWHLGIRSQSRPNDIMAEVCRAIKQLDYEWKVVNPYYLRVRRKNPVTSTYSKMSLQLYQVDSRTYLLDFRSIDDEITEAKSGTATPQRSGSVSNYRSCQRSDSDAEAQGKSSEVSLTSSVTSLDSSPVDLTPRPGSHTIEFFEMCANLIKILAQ
UniProt Q02763, sequence (whole entry, looked up): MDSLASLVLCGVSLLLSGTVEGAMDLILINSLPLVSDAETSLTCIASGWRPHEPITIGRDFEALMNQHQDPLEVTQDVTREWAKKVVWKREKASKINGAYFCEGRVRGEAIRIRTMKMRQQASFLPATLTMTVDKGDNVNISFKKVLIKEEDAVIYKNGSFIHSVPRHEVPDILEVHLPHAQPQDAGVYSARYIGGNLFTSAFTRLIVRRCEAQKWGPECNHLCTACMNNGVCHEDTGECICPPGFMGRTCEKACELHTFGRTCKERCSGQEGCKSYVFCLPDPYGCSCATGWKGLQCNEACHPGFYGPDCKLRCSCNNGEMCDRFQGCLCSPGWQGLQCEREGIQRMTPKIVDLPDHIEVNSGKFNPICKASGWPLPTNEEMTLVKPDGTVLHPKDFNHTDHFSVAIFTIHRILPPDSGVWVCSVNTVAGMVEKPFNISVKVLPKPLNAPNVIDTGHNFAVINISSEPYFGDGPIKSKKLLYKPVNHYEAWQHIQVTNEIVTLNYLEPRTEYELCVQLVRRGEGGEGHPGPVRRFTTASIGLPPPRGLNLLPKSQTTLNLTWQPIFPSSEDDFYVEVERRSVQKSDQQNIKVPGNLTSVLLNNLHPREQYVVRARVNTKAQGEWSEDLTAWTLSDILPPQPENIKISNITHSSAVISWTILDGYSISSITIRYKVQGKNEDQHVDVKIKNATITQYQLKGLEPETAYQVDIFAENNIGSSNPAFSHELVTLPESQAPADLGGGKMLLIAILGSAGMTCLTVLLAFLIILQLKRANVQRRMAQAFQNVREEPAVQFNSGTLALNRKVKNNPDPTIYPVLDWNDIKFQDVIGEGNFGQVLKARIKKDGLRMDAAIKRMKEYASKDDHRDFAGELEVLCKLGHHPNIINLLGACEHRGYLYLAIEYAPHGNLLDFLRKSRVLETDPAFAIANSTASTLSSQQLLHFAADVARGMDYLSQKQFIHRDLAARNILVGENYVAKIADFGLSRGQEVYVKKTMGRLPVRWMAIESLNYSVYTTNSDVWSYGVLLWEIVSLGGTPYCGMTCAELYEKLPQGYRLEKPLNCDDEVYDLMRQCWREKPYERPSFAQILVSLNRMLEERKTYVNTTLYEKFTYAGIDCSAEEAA
UniProt Q04771, sequence (whole entry, looked up): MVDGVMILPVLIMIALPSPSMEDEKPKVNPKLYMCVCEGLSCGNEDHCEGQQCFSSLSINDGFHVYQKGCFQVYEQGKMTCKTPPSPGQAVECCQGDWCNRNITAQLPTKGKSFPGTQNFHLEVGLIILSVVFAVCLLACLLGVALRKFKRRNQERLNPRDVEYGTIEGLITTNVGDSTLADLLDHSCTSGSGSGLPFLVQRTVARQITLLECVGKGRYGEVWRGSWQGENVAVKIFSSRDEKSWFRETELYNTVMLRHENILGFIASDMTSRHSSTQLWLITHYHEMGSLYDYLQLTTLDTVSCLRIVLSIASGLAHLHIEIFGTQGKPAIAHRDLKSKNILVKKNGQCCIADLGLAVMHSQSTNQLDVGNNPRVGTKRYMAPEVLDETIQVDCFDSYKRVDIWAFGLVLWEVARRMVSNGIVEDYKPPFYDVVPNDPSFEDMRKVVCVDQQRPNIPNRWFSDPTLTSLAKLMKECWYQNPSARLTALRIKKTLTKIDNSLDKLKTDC
UniProt P46734, sequence (whole entry, looked up): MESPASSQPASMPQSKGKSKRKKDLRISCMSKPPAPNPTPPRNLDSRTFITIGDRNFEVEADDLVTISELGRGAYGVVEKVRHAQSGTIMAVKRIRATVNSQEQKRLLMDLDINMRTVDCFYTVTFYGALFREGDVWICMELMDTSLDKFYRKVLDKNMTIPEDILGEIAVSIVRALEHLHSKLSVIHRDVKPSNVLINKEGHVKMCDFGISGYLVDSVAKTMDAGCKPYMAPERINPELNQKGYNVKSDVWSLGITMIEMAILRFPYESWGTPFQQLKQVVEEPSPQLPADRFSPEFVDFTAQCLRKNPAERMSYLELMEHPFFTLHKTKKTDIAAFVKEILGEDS
UniProt P42336, sequence (whole entry, unmodified, looked up): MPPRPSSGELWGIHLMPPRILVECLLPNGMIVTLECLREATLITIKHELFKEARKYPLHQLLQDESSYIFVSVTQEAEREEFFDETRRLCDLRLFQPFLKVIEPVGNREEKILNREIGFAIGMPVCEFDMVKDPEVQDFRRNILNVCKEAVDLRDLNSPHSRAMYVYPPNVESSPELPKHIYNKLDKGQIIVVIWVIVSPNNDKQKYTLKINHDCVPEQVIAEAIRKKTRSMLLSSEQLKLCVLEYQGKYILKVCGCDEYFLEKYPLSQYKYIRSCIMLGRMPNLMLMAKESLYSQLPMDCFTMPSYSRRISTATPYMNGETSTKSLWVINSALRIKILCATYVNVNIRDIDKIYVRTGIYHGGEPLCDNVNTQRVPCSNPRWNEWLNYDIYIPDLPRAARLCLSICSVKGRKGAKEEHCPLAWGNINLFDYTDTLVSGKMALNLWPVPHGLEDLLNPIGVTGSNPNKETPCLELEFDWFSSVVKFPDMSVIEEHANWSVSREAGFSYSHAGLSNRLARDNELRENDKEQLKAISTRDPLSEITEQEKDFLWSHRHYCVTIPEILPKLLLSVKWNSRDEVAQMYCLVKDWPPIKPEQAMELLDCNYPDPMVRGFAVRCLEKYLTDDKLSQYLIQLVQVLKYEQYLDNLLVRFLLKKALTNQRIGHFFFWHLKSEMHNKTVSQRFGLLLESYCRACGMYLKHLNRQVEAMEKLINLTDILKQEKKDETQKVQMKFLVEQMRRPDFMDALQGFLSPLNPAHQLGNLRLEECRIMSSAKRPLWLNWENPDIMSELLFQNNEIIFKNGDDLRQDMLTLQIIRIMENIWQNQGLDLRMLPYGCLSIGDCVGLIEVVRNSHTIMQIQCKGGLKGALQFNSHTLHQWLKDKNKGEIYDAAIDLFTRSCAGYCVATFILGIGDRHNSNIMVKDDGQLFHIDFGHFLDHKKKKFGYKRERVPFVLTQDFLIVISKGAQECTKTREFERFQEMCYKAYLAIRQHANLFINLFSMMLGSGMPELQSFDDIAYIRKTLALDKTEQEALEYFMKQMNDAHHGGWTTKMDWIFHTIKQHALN

Study 1
Organism: Sarcocystis neurona
Observed: parasite growth
Concentration: 10 µM
Time: 96 h
Setting: first screen
Reference: untreated
Quantity: log2 fold change
Structure (SMILES) = Cc1nc2ccccn2c(=O)c1CCN1CCC(C(=O)c2ccc(F)cc2)CC1; value = -0.74
Structure (SMILES) = CCCCc1nc(Cl)c(CO)n1Cc1ccc(-c2ccccc2-c2nn[nH]n2)cc1; value = 0.14
Structure (SMILES) = C[C@H](CCC(=O)O)[C@H]1CC[C@H]2[C@@H]3[C@@H](O)C[C@@H]4C[C@H](O)CC[C@]4(C)[C@H]3CC[C@]12C; value = 0.41
Structure (SMILES) = O=c1[nH]c(=O)n(C2CCCO2)cc1F (centres unmarked); value = -0.23
Structure (SMILES) = Cc1ncc([N+](=O)[O-])n1CC(C)O (centres unmarked); value = 0.22
Structure (SMILES) = COc1cc2nc(N3CCN(C(=O)C4COc5ccccc5O4)CC3)nc(N)c2cc1OC (centres unmarked); value = -1.87
Structure (SMILES) = COCCCC/C(=N\OCCN)c1ccc(C(F)(F)F)cc1; value = -0.26
Structure (SMILES) = C[C@]12C=CC(=O)C=C1CC[C@@H]1[C@@H]2C(=O)C[C@@]2(C)[C@H]1CC[C@]2(O)C(=O)CO; value = 0.25

Study 2
Cell line: HaCaT
Concentration: 100 µM
Time: 36 h
Quantity: viability
Structure (SMILES) = CC(=O)[C@H]1CC[C@H]2[C@@H]3CCC4=CC(=O)CC[C@]4(C)[C@H]3CC[C@]12C; value = 32%
Structure (SMILES) = COc1ccc(O)cc1; value = 88.1%
Structure (SMILES) = CO[C@@H]1[C@@H](O[C@@H]2O[C@H](C)[C@@H](O[C@H]3C[C@@](C)(O)[C@@H](O)[C@H](C)O3)[C@H](N(C)C)[C@H]2O)[C@@H](CC=O)C[C@@H](C)[C@@H](O[C@H]2CC[C@H](N(C)C)[C@@H](C)O2)/C=C/C=C/C[C@@H](C)OC(=O)C[C@H]1OC(C)=O; value = 91.7%
Structure (SMILES) = CCOC(=O)C1=C[C@@H](OC(CC)CC)[C@H](NC(C)=O)[C@@H](N)C1; value = 97.8%
Structure (SMILES) = O=C(O)COC(=O)Cc1ccccc1Nc1c(Cl)cccc1Cl; value = 56%
Structure (SMILES) = Nc1nc(NC2CC2)c2ncn([C@H]3C=C[C@@H](CO)C3)c2n1; value = 95.1%
Structure (SMILES) = C[C@]12CC[C@@H]3c4ccc(O)cc4CC[C@H]3[C@@H]1C[C@@H](O)[C@@H]2O; value = 57.8%
Structure (SMILES) = CN1[C@@H]2CC[C@H]1C[C@@H](OC(=O)c1c[nH]c3ccccc13)C2; value = 54.3%
Structure (SMILES) = CCOC(=O)[C@H](CCc1ccccc1)N[C@@H](C)C(=O)N1Cc2ccccc2C[C@H]1C(=O)O; value = 95.7%
Structure (SMILES) = COc1ccc(-c2cc(=S)ss2)cc1; value = 69%
Structure (SMILES) = COc1ccc2[nH]c(SCc3ncc(C)c(OC)c3C)nc2c1; value = 50.6%

Study 3
Compound: CCC(=O)N[C@@H]1CC[C@H](C(=O)N(C)c2ccc(-c3nc4ccccc4o3)cc2)C1
Observed: cell-free assay
Method: competition with immobilised ligand
Concentration: 1 µM
Quantity: remaining binding
target = Wee1-like protein kinase (WEE1, Homo sapiens, UniProt P30291); value = 99%
target = Activin receptor type-1 (ACVR1, Homo sapiens, UniProt Q04771); value = 94%
target = Mitogen-activated protein kinase kinase kinase 7 (MAP3K7, Homo sapiens, UniProt O43318); value = 100%
target = Tyrosine-protein kinase Yes (YES1, Homo sapiens, UniProt P07947); value = 100%
target = Tyrosine-protein kinase ABL1, phosphorylated (ABL1, Homo sapiens, UniProt P00519, T315I); value = 87%
target = Serine/threonine-protein kinase Nek1 (NEK1, Homo sapiens, UniProt Q96PY6); value = 100%
target = 5'-AMP-activated protein kinase catalytic subunit alpha-1 (PRKAA1, Homo sapiens, UniProt Q13131); value = 91%
target = Dual specificity mitogen-activated protein kinase kinase 3 (MAP2K3, Homo sapiens, UniProt P46734); value = 91%
target = Ephrin type-A receptor 1 (EPHA1, Homo sapiens, UniProt P21709); value = 87%
target = Fibroblast growth factor receptor 3 (FGFR3, Homo sapiens, UniProt P22607); value = 100%
target = Hepatocyte growth factor receptor (MET, Homo sapiens, UniProt P08581); value = 100%
target = Angiopoietin-1 receptor (TEK, Homo sapiens, UniProt Q02763); value = 82%
target = Phosphatidylinositol 4,5-bisphosphate 3-kinase catalytic subunit alpha isoform (PIK3CA, Homo sapiens, UniProt P42336, E542K); value = 84%
target = Serine/threonine-protein kinase 25 (STK25, Homo sapiens, UniProt O00506); value = 100%
target = Insulin-like growth factor 1 receptor (IGF1R, Homo sapiens, UniProt P08069); value = 100%

Study 4
SMILES: C=CCc1ccc(O)c(-c2cc(CC=C)ccc2O)c1
Target: Anoctamin-1 (ANO1, Homo sapiens, UniProt Q5XXA6, del476-501)
UniProt Q5XXA6, sequence (whole entry, unmodified, looked up): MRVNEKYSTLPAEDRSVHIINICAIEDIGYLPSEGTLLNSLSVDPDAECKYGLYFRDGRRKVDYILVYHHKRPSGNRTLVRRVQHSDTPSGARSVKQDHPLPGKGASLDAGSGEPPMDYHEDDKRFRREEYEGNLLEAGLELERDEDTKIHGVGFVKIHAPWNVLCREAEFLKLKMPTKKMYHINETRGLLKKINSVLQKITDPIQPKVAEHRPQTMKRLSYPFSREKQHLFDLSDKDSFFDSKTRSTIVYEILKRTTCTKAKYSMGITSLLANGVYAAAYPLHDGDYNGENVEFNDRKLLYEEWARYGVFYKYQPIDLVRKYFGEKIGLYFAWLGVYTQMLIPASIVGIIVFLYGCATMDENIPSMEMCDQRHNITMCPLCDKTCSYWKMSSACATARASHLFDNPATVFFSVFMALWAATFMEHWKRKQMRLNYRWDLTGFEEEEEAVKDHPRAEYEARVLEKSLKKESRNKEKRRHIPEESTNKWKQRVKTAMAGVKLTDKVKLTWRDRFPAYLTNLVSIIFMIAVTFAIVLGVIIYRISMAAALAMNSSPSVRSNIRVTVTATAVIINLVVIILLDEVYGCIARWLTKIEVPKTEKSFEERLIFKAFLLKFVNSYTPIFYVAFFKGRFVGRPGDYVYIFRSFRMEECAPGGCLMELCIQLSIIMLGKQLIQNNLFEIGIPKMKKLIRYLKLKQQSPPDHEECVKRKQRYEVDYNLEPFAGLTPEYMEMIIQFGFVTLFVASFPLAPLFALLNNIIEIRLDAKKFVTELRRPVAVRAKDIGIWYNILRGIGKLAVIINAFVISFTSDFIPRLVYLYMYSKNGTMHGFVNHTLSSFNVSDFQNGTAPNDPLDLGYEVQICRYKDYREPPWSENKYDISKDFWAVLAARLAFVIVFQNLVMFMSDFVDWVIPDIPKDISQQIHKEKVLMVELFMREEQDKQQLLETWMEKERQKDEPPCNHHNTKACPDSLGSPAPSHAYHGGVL
Observed: chloride current
Method: whole-cell patch clamp
Quantity: normalised current
concentration = 100 µM; setting = 0 mV, 300 nM free Ca2+; value = -0.000189
concentration = 30 µM; setting = -40 mV, 300 nM free Ca2+; value = -0.0275
concentration = 1 µM; setting = 0 mV, 300 nM free Ca2+; value = -0.000284
concentration = 10 µM; setting = 20 mV, 300 nM free Ca2+; with = honokiol and magnolol 3 µM; value = 0.0497

Excerpt of the above (study 2):
Structure (SMILES) = Nc1nc(NC2CC2)c2ncn([C@H]3C=C[C@@H](CO)C3)c2n1; value = 95.1%
Structure (SMILES) = CCOC(=O)C1=C[C@@H](OC(CC)CC)[C@H](NC(C)=O)[C@@H](N)C1; value = 97.8%
Structure (SMILES) = COc1ccc2[nH]c(SCc3ncc(C)c(OC)c3C)nc2c1; value = 50.6%
Structure (SMILES) = CO[C@@H]1[C@@H](O[C@@H]2O[C@H](C)[C@@H](O[C@H]3C[C@@](C)(O)[C@@H](O)[C@H](C)O3)[C@H](N(C)C)[C@H]2O)[C@@H](CC=O)C[C@@H](C)[C@@H](O[C@H]2CC[C@H](N(C)C)[C@@H](C)O2)/C=C/C=C/C[C@@H](C)OC(=O)C[C@H]1OC(C)=O; value = 91.7%
